Results of several laboratories.
Protocols differ between the studies behind these lines. ± marks the error that the study gave.
lecA: PA-I galactophilic lectin (lecA, Pseudomonas aeruginosa, UniProt Q05097)
Sequence of UniProt P01024 (whole entry, unmodified, looked up): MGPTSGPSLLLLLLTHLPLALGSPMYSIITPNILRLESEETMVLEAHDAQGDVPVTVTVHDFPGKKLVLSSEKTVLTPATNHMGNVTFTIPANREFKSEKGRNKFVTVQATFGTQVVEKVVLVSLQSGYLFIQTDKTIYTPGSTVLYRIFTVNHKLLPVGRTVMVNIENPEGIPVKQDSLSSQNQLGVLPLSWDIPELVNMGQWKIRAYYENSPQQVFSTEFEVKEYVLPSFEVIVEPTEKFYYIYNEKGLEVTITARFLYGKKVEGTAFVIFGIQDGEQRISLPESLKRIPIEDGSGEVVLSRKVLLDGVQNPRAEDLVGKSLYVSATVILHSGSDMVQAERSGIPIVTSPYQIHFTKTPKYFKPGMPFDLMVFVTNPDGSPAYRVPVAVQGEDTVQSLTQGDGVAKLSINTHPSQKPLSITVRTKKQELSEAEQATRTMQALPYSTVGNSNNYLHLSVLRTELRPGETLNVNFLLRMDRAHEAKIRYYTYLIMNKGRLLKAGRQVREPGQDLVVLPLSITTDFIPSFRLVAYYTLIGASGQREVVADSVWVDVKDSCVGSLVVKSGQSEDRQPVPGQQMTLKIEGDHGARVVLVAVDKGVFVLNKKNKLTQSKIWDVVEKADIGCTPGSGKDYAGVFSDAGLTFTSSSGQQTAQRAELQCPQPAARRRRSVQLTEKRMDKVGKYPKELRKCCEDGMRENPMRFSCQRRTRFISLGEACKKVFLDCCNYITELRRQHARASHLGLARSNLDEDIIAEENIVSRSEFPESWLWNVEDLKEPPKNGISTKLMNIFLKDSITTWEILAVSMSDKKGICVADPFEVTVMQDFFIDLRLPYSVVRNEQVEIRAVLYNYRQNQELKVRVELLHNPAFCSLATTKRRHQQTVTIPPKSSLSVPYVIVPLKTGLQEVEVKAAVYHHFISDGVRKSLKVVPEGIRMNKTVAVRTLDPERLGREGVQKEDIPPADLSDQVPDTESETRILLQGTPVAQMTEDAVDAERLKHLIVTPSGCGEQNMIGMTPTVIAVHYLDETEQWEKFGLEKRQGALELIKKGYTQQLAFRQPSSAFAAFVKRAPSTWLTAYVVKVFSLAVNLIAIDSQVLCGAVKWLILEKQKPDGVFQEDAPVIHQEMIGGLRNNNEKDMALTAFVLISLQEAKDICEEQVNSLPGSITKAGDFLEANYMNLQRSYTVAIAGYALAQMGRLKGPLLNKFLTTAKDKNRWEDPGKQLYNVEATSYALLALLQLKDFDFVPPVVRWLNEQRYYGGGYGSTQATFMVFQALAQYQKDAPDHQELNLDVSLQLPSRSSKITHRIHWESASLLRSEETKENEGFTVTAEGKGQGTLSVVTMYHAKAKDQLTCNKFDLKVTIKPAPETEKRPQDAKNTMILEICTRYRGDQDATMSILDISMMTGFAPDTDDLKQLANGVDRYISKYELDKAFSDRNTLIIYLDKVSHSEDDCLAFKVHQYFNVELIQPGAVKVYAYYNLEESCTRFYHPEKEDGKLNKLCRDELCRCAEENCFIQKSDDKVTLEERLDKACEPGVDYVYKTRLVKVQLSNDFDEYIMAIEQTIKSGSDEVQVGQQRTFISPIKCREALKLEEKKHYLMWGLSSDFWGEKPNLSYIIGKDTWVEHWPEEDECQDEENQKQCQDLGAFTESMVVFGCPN
Sequence of UniProt Q05097 (whole entry, looked up): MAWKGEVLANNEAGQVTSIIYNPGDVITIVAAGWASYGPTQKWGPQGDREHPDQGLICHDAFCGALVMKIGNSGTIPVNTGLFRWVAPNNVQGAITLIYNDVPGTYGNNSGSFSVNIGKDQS
Sequence of UniProt Q15691 (whole entry, looked up): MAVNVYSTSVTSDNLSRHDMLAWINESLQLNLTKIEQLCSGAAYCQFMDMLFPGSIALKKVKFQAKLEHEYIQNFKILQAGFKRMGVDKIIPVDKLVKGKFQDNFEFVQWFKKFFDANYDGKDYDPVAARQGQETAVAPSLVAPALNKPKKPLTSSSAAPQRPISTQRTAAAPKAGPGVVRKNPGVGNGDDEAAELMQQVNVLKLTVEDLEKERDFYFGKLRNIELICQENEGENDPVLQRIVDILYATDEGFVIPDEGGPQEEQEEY
Sequence of UniProt P53341 (whole entry, looked up): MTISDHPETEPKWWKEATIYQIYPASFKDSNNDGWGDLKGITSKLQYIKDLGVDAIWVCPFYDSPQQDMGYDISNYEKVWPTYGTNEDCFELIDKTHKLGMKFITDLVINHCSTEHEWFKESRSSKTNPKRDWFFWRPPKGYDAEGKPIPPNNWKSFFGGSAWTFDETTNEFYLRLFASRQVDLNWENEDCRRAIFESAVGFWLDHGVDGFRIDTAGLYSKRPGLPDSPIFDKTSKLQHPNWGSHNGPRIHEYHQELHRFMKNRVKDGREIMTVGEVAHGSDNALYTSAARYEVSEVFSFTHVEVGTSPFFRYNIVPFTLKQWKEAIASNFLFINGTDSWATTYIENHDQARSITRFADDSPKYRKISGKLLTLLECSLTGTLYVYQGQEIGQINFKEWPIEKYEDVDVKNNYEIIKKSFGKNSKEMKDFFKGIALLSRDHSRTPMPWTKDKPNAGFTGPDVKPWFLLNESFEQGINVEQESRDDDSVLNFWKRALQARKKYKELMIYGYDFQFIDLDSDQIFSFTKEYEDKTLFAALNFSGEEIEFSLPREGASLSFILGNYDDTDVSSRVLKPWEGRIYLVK
Sequence of UniProt P78417 (whole entry, looked up): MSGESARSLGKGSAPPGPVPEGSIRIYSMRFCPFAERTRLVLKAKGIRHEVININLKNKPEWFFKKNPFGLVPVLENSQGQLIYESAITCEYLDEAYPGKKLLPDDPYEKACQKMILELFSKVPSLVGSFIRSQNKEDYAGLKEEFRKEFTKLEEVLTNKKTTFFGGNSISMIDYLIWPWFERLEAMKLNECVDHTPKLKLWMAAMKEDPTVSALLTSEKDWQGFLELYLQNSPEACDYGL
Sequence of UniProt Q04609 (whole entry, looked up): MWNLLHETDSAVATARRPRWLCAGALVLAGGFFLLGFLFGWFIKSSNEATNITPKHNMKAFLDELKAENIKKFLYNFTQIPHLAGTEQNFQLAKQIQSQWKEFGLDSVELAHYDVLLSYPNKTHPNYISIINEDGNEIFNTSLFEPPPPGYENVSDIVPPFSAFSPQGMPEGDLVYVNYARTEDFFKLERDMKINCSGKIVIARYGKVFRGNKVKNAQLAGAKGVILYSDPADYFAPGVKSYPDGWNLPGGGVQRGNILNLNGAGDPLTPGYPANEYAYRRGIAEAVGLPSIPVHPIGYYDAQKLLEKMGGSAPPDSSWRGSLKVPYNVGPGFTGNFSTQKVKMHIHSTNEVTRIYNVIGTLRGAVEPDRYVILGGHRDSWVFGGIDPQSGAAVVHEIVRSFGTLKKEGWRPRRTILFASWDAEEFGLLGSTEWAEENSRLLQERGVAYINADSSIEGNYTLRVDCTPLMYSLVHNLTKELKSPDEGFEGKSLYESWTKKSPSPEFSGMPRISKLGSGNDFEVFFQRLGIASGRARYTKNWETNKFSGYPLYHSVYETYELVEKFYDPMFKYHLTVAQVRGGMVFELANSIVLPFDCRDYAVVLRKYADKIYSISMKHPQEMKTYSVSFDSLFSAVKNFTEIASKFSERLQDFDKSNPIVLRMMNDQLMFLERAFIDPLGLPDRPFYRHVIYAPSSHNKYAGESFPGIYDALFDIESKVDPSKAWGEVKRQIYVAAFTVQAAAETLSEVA
Sequence of UniProt P62942 (whole entry, looked up): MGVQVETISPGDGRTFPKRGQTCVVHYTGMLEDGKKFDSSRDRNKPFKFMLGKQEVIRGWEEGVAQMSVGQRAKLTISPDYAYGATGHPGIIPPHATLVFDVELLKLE
Sequence of UniProt Q99942 (whole entry, looked up): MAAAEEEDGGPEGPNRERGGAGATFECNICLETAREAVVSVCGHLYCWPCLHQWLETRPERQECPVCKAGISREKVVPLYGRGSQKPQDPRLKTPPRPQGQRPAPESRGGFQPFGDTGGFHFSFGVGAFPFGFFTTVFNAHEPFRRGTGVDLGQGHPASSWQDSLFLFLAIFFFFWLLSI

Compound	target	assay	test system	setting	scale	quantity	value
CC[C@H](C)[C@H](NC(=O)[C@@H]1CSSC[C@H](NC(=O)[C@@H](NC(C)=O)[C@@H](C)CC)C(=O)N[C@@H](C(C)C)C(=O)N[C@@H](Cc2cn(C)c3ccccc23)C(=O)N[C@@H](CCC(N)=O)C(=O)N[C@@H](CC(=O)O)C(=O)N[C@@H](Cc2c[nH]c3ccccc23)C(=O)N(C)CC(=O)N[C@@H](C)C(=O)N[C@@H](Cc2c[nH]cn2)C(=O)N[C@@H](CCCNC(=N)N)C(=O)N1)C(N)=O	Complement C3 (Homo sapiens, UniProt P01024)	ITC	–	concentration not given	–	ΔG of binding	-11.2 kcal/mol
OC[C@H]1O[C@@H](Oc2ccc(-c3cn([C@@H]4O[C@H](CO)[C@@H](n5cc(CCCCc6cn([C@H]7[C@H](O)[C@@H](O)[C@H](n8cc(-c9ccc(O[C@@H]%10O[C@H](CO)[C@H](O)[C@H](O)[C@H]%10O)cc9)nn8)O[C@@H]7CO)nn6)nn5)[C@H](O)[C@H]4O)nn3)cc2)[C@H](O)[C@@H](O)[C@H]1O	lecA	isothermal titration calorimetry	–	25 °C	–	ΔG	-9.6 ± 0.2 kcal/mol
NC[C@@H]1O[C@H](O[C@H]2[C@@H](O)[C@H](O[C@@H]3[C@@H](O)[C@H](N)C[C@H](N)[C@H]3O[C@H]3O[C@H](CN)[C@@H](O)[C@H](O)[C@H]3N)O[C@@H]2CO)[C@H](N)[C@@H](O)[C@@H]1O	poly(dA)·2poly(dT) triplex	ITC	–	concentration not given, pH 6.8, KCl 150 mM	–	heat capacity change	-116 ± 4 cal/(mol·K)
C=C1CCN2C(=O)COc3cccc(c3)C(CCc3ccc(OC)c(OC)c3)OC(=O)C3CCCCN3C(=O)C(=O)C(C)(C)COC(=O)C(CO)NC(=O)C2C1 (centres unmarked)	FKBP1A/MAPRE1 (Homo sapiens, UniProt P62942+Q15691)	FKBP12-MAPRE1 proximity, TR-FRET	–	–	relative to: DMSO	Emax	255%
O=C(COc1ccc2ccccc2c1)N[C@@H](Cc1cn(CCNC(=O)c2ccc(S[C@@H]3O[C@H](CO)[C@H](O)[C@H](O)[C@H]3O)cc2)nn1)C(=O)NCCO	lecA	binding, isothermal titration calorimetry	–	25 °C	–	ΔH	-9.25 ± 0.669 kcal/mol
O=C1C=CC2(c3coc4cc(O)ccc4c3=O)c3cc(-c4coc5cc(O)ccc5c4=O)ccc3OC2C1 (centres unmarked)	laccase (Trametes versicolor)	substrate, Hill kinetic model	–	product formation	–	Hill coefficient	1.36
C=CCOc1ccc(C[C@@H]2NC(=O)[C@H](C(C)C)NC(=O)[C@@H](NC(=O)[C@@H](NC(C)=O)[C@@H](C)CC)CSSC[C@@H](C(=O)N[C@H](C(N)=O)[C@@H](C)O)NC(=O)[C@H](CCCNC(=N)N)NC(=O)[C@H](Cc3c[nH]cn3)NC(=O)[C@H](C)NC(=O)CNC(=O)[C@H](Cc3c[nH]c4ccccc34)NC(=O)[C@H](CC(=O)O)NC(=O)[C@H](CCC(N)=O)NC2=O)cc1	Complement C3, C3b fragment (Homo sapiens, UniProt P01024)	SPR	–	pH 7.4, 25 °C	–	koff	0.063 ± 0.015 s⁻¹
O=C([O-])CN1CCN(CC(=O)[O-])CCN(C(CCC(=O)NCCCCCN(CCCC[C@H](NC(=O)N[C@@H](CCC(=O)O)C(=O)O)C(=O)O)C(=O)c2ccc(I)cc2)C(=O)O)CCN(CC(=O)[O-])CC1.[68Ga+3] (some centres unmarked)	Glutamate carboxypeptidase 2 (FOLH1, Homo sapiens, UniProt Q04609)	PET/CT	human, prostate lesion	–	relative to: normal liver	tumour-to-background ratio	9.58
C=C1C(=O)O[C@@H]2[C@H]3C(CO)=CC(=O)C3=C(C)C[C@H](O)[C@@H]12	Alpha-glucosidase MAL12 (MAL12, Saccharomyces cerevisiae S288c, UniProt P53341)	fluorescence quenching	–	298 K	–	Stern-Volmer constant	6630 L/mol
COC(=O)C1=Cc2ccccc2S1(=O)=O	E3 ubiquitin-protein ligase RNF5 (Homo sapiens, UniProt Q99942)	immunoblotting	HeLa	10 µM, 9 h	–	protein level	decreased
O=C(NC1CCCCC1)C(c1cccnc1)N(C(=O)CCl)c1ccc(F)cc1 (racemic)	Glutathione S-transferase omega-1 (GSTO1, Homo sapiens, UniProt P78417)	LC-MS/MS	–	sum of normalized AUCs	–	total modified species	100%
